Measurements from different studies.
Lines come from different studies, so protocols differ. ± marks the error that the study gave. Converted amounts (≈) assume the structure as drawn.

Compound | organism | test | system | setting | how to read | measurement | result
CCC(NC(=O)NNS(=O)(=O)c1ccc(C)cc1)(C(F)(F)F)C(F)(F)F | human respiratory syncytial virus |  | HEp-2 | concentration not given |  | antiviral activity | inactive
O=C(Cn1ccc(=O)c2ccccc21)N/N=C/c1cc(Br)c(O)c(Br)c1 | Sclerotinia sclerotiorum | microbial growth |  | 50 µg/mL |  | inhibition | 19.5%
COc1ccc(C(=O)N2c3ccc(F)cc3[C@@H](Nc3ccccc3)C[C@H]2C)cc1 | Aedes albopictus |  |  | 1 µM, 72 h, second-instar larvae | relative to: Abbott-corrected control | mortality | 41 ± 9%
O=[N+]([O-])c1ccc(/C=N/N=C/c2ccc(Br)cc2)o1 | Trypanosoma congolense |  | IL3000, mouse | intraperitoneal, 10 mg/kg daily for 7 days, from day 4 post-infection |  | day of death | 10 days post-infection
C[C@@H]1C[C@H](Nc2ccccc2)c2cc(F)ccc2N1C(=O)c1ccc(Cl)c(Cl)c1 | Aedes albopictus |  |  | 1 µM, 72 h, second-instar larvae | relative to: Abbott-corrected control | mortality | 75 ± 25%
COc1ccccc1-c1n[nH]c2nc(N[C@H]3CC[C@H](NS(=O)(=O)CC(C)C)CC3)ncc12 | Leishmania donovani |  | LdBOB CRK12 G572D + CYC9 overexpressing, promastigotes |  |  | EC50 | 4.6 ± 0.05 nM
Nc1ncnc2c1c(Br)cn2[C@@H]1O[C@H](CO)C[C@H]1O | Trypanosoma congolense | parasite growth, resazurin | 6C3 diminazene-resistant | 48 h plus 24 h resazurin |  | EC50 | 0.5 ± 0.1 nM
C[n+]1ccc(/C=C/c2ccc(O)c(O)c2)c2ccccc21 | Streptococcus mutans | microbial growth |  |  |  | MIC50 | > 400 µM
CON(C(=O)c1cn(C)nc1C(F)F)C(C)Cc1c(Cl)cc(Cl)cc1Cl (centres unmarked) | Sclerotinia sclerotiorum | microbial growth |  | 1.56 µg/mL |  | inhibition | 75.7%
Nc1ccn(C[C@@H](CO)OCP(=O)(O)OCCCS(=O)(=O)CCCCCCCCCCCCCC2CCC2)c(=O)n1 | human betaherpesvirus 5 | cytopathic effect | AD169 |  | relative to: CC50 over EC50 | selectivity index | > 19
CC(C)C[C@H](NC(=O)[C@H](CC(=O)O)NC(=O)[C@H](CC(C)C)NC(=O)[C@H](CC(=O)O)NC(=O)CNC(=O)[C@@H]1CCCN1C(=O)[C@H](CCCCN)NC(=O)[C@H](CC(C)C)NC(=O)[C@H](Cc1c[nH]c2ccccc12)NC(=O)[C@@H]1CCCN1)C(=O)O | dengue virus type 2 | plaque reduction | LLC-MK2, New Guinea C | 200 µM |  | maximum inhibition | 41.5 ± 20%
CC[C@H](C)[C@H](NC(=O)[C@H](CC(C)C)NC(=O)CNC(=O)[C@H](Cc1c[nH]cn1)NC(=O)[C@@H](NC(=O)[C@H](Cc1ccccc1)NC(=O)[C@H](CC(N)=O)NC(=O)[C@H](Cc1c[nH]c2ccccc12)NC(=O)[C@@H](NC(=O)[C@H](Cc1c[nH]cn1)NC(=O)[C@H](Cc1c[nH]cn1)NC(=O)[C@H](Cc1c[nH]c2ccccc12)NC(=O)[C@@H](N)CC(C)C)[C@@H](C)CC)C(C)C)C(N)=O | Herpes simplex virus 1 | viral entry, plaque reduction | Vero, F | 37 °C |  | IC50 | 4.23 µg/mL
CC[C@H](C)[C@H](NC(=O)[C@@H](NC(=O)CN)C(C)C)C(=O)N[C@@H](Cc1ccccc1)C(=O)N[C@@H](CC(N)=O)C(=O)N[C@@H](C)C(=O)N[C@@H](CC(C)C)C(=O)N[C@@H](CCCCN)C(=O)NCC(=O)N[C@H](C(=O)N[C@@H](C)C(=O)N[C@@H](CCCCN)C(=O)N[C@H](C(=O)N[C@H](C(=O)N[C@@H](C)C(=O)N[C@@H](C)C(=O)N[C@@H](CCC(N)=O)C(=O)N[C@@H](CC(C)C)C(=O)N[C@@H](CC(C)C)C(=O)N[C@@H](CCCCN)C(=O)N[C@@H](CCCCN)C(=O)N[C@@H](C)C(=O)N[C@@H](CCCNC(=N)N)C(=O)N[C@H]1CSSC[C@@H](C(=O)O)NC(=O)[C@H](CO)NC(=O)[C@H](CCCCN)NC(=O)[C@H](CC(=O)O)NC(=O)[C@H](CC(C)C)NC(=O)[C@H](CCCCN)NC1=O)C(C)C)[C@@H](C)O)C(C)C | Staphylococcus aureus |  | MRSA NCTC 12493 | with: horse serum 10% |  | MIC | 2 µM (≈ 6.35 µg/mL)
CC[C@H](C)[C@H](NC(=O)[C@H](CCCNC(=N)N)NC(=O)[C@@H]1CCCN1C(=O)[C@@H](NC(=O)[C@H](CO)NC(=O)[C@H](CCCCN)NC(=O)[C@H](CO)NC(=O)[C@H](CC(C)C)NC(=O)[C@H](CCCCN)NC(=O)[C@H](CC(C)C)NC(=O)[C@H](Cc1ccccc1)NC(=O)[C@H](Cc1ccccc1)NC(=O)CNC(=O)[C@@H]1CCCN1C(=O)[C@@H](NC(=O)[C@H](CCC(=O)O)NC(=O)[C@@H](N)CC(=O)O)[C@@H](C)O)C(C)C)C(N)=O | Aedes aegypti | agonist | pharate pupae | injection, 10 fmol, 9-12 h before ecdysis |  | ecdysis contraction duration | ~10 min
CC[C@H](C)[C@H](NC(=O)[C@H](CO)NC(=O)[C@H](CO)NC(=O)[C@H](Cc1ccccc1)NC(=O)CN)C(=O)N[C@@H](Cc1ccccc1)C(=O)N[C@@H](CCCNC(=N)N)C(=O)NCC(=O)N[C@H](C(=O)N[C@@H](C)C(=O)N[C@@H](CCCCN)C(N)=O)C(C)C | Escherichia coli |  | ATCC 8739 | with: 2.5 mM CaCl2 |  | MBC | > 128 µM
CC[P+](CC)(CC)[Au-][S][C@@H]1O[C@H](COC(C)=O)[C@@H](OC(C)=O)[C@H](OC(C)=O)[C@H]1NC(C)=O | Enterococcus faecium |  | ATCC 700221 | concentration not given | relative to: auranofin | fold activity enhancement | 2 to 4
CC[C@H](C)[C@H](NC(=O)[C@H](Cc1c[nH]c2ccccc12)NC(=O)[C@H](CCCNC(=N)N)NC(=O)[C@H](CCC(N)=O)NC(=O)[C@@H](NC(=O)[C@H](Cc1c[nH]c2ccccc12)NC(=O)[C@H](CCCNC(=N)N)NC(=O)[C@H](CCCNC(=N)N)NC(=O)[C@H](C)NC(=O)[C@H](C)NC(=O)[C@H](C)NC(=O)[C@@H](NC(=O)[C@H](CCCCN)NC(=O)[C@@H]1CCCN1C(=O)[C@H](CCCNC(=N)N)NC(=O)[C@H](Cc1c[nH]c2ccccc12)NC(=O)[C@H](CCCNC(=N)N)NC(=O)[C@H](CCCNC(=N)N)NC(=O)[C@@H](NC(=O)[C@H](Cc1c[nH]c2ccccc12)NC(=O)[C@H](CCCNC(=N)N)NC(=O)[C@H](CCC(N)=O)NC(=O)[C@@H](NC(=O)[C@H](Cc1c[nH]c2ccccc12)NC(=O)[C@H](CCCNC(=N)N)NC(=O)[C@@H](N)CCCNC(=N)N)C(C)C)[C@@H](C)CC)C(C)C)C(C)C)C(=O)N[C@@H](CCCNC(=N)N)C(=O)N[C@@H](CCCNC(=N)N)C(=O)N[C@@H](Cc1c[nH]c2ccccc12)C(=O)N[C@@H](CCCNC(=N)N)C(=O)N1CCC[C@H]1C(=O)N[C@@H](CCCCN)C(=O)N[C@H](C(N)=O)C(C)C | Talaromyces |  |  | 25 °C, metabolic activity and growth |  | inhibitory concentration | 0.625 µM
COc1ccc(Br)cc1/C=N/NC(=O)Cn1ccc(=O)c2ccccc21 | Sclerotinia sclerotiorum | microbial growth |  | 50 µg/mL |  | inhibition | 12.2%
CCC(CC)C(=O)O[C@H]1[C@H](C)[C@H](O)[C@H](C)[C@@H](O)[C@@H](C)/C=C/C=C(/C)C(=O)NC2=C3NC4(CCN(CC(C)C)CC4)N=C3c3c(c(O)c(C)c4c3C(=O)[C@@](C)(O/C=C/[C@H](OC)[C@H]1C)O4)C2=O | Mycobacteroides abscessus |  | ATCC 19977 |  | relative to: wild type over arr deletion | MIC ratio | 23.5
NNC(=O)/C=C/c1ccc(N)cc1 | Aedes aegypti | larval mortality |  | 48 h, larva |  | LC50 | 169 µg/mL (≈ 954 µM)
CC[C@H](C)[C@H](NC(=O)[C@H](CCCCN)NC(=O)[C@H](CCCCN)NC(=O)[C@H](CC(C)C)NC(=O)[C@H](CCCCN)NC(=O)[C@H](CCC(=O)O)NC(=O)[C@H](CCCCN)NC(=O)[C@@H](NC(=O)[C@H](CCCCN)NC(=O)[C@H](CC(N)=O)NC(=O)[C@H](CCCNC(=N)N)NC(=O)[C@H](Cc1ccccc1)NC(=O)[C@H](CCCCN)NC(=O)[C@H](CCCNC(=N)N)NC(=O)[C@H](CC(C)C)NC(=O)[C@H](CCCNC(=N)N)NC(=O)[C@H](CCCCN)NC(=O)[C@H](CCCNC(=N)N)NC(=O)[C@@H](N)CC(C)C)[C@@H](C)CC)C(=O)NCC(=O)N[C@@H](CCC(N)=O)C(=O)N[C@@H](CCCCN)C(=O)N[C@H](C(=O)N[C@@H](CCC(N)=O)C(=O)NCC(=O)N[C@@H](Cc1ccccc1)C(=O)N[C@H](C(=O)N1CCC[C@H]1C(=O)N[C@@H](CCCCN)C(=O)N[C@@H](CC(C)C)C(=O)O)C(C)C)[C@@H](C)CC | Streptococcus mutans | inhibition zone | ATCC 1.2499 | LB agar, overnight |  | lethal concentration | 0.73 µM
CC(=O)N[C@@H]1[C@@H](O)[C@H](O)[C@@H](CO)O[C@H]1[Se][Se][C@@H]1O[C@H](CO)[C@@H](O)[C@H](O)[C@H]1NC(C)=O | Trypanosoma brucei | parasite growth, flow cytometry |  | 5 µM, 24 h |  | viability | 120%
CC(=O)CCC1C(=O)NC(C(C)C)C(=O)NC(Cc2cccc(O)c2)C(=O)N2CCCC(N2)C(=O)OC(C(C)=CC=CC(=O)N2CCCCO2)CC=CC=CC(O)C(C)C1O (centres unmarked) | hepatitis B virus | viral replication, item: HBV DNA | HBV stable cell line |  |  | IC50 | 610 nM

Some of these lines once more:
Compound | organism | test | system | setting | how to read | measurement | result
CC(C)C[C@H](NC(=O)[C@H](CC(=O)O)NC(=O)[C@H](CC(C)C)NC(=O)[C@H](CC(=O)O)NC(=O)CNC(=O)[C@@H]1CCCN1C(=O)[C@H](CCCCN)NC(=O)[C@H](CC(C)C)NC(=O)[C@H](Cc1c[nH]c2ccccc12)NC(=O)[C@@H]1CCCN1)C(=O)O | dengue virus type 2 | plaque reduction | LLC-MK2, New Guinea C | 200 µM |  | maximum inhibition | 41.5 ± 20%
CC[C@H](C)[C@H](NC(=O)[C@H](CC(C)C)NC(=O)CNC(=O)[C@H](Cc1c[nH]cn1)NC(=O)[C@@H](NC(=O)[C@H](Cc1ccccc1)NC(=O)[C@H](CC(N)=O)NC(=O)[C@H](Cc1c[nH]c2ccccc12)NC(=O)[C@@H](NC(=O)[C@H](Cc1c[nH]cn1)NC(=O)[C@H](Cc1c[nH]cn1)NC(=O)[C@H](Cc1c[nH]c2ccccc12)NC(=O)[C@@H](N)CC(C)C)[C@@H](C)CC)C(C)C)C(N)=O | Herpes simplex virus 1 | viral entry, plaque reduction | Vero, F | 37 °C |  | IC50 | 4.23 µg/mL
CC[C@H](C)[C@H](NC(=O)[C@@H](NC(=O)CN)C(C)C)C(=O)N[C@@H](Cc1ccccc1)C(=O)N[C@@H](CC(N)=O)C(=O)N[C@@H](C)C(=O)N[C@@H](CC(C)C)C(=O)N[C@@H](CCCCN)C(=O)NCC(=O)N[C@H](C(=O)N[C@@H](C)C(=O)N[C@@H](CCCCN)C(=O)N[C@H](C(=O)N[C@H](C(=O)N[C@@H](C)C(=O)N[C@@H](C)C(=O)N[C@@H](CCC(N)=O)C(=O)N[C@@H](CC(C)C)C(=O)N[C@@H](CC(C)C)C(=O)N[C@@H](CCCCN)C(=O)N[C@@H](CCCCN)C(=O)N[C@@H](C)C(=O)N[C@@H](CCCNC(=N)N)C(=O)N[C@H]1CSSC[C@@H](C(=O)O)NC(=O)[C@H](CO)NC(=O)[C@H](CCCCN)NC(=O)[C@H](CC(=O)O)NC(=O)[C@H](CC(C)C)NC(=O)[C@H](CCCCN)NC1=O)C(C)C)[C@@H](C)O)C(C)C | Staphylococcus aureus |  | MRSA NCTC 12493 | with: horse serum 10% |  | MIC | 2 µM (≈ 6.35 µg/mL)
